# Measured values gathered from unrelated publications.
# Each numbered part is a random draw from the data of one study; scales do not carry over between parts.

# Sample 1
# Target: RING finger protein unkempt homolog, zinc fingers 1-6, GST-SBP tag (UNK, Homo sapiens, UniProt Q9C0B0, residues 30-357)
# Technique: RNA Bind-n-Seq
# Molecule type: RNA
# Matrix: in vitro
# Tested at: not given
# Setting: RNA with constant flanks, ends assumed
# Baseline: input RNA pool
# Reading: higher = stronger binding
# Constant ends, left off below: GGGAGUUCUACAGUCCGACGAUC … CAACAGAGGAUUGAGCAUCA
# Residues (chain): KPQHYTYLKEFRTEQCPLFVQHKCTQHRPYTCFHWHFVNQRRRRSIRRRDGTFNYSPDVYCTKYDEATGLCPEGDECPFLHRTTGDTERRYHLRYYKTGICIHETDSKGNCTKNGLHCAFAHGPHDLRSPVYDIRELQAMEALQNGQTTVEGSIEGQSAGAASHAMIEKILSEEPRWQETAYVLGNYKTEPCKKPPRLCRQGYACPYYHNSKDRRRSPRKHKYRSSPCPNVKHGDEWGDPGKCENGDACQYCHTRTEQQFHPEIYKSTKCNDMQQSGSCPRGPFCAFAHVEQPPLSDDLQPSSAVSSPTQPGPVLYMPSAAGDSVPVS
Oligonucleotide,bound/input enrichment
UGUGUGUGUGUGUGUGUGUGUGUGUGUGUGUGUGUGUGAAUUUUCUAUCGGCCUGGAUAUAUCCGCAGGGUUUGAAUGUAGUUUUGGCCUUUGGCCAUUAUAUACUUCUAUUAAAAUCCA,0.56 ratio
AAAUAACAUUGGAAAAUUGGGAGAAGUCUCCUUGGUUUGGAAAAAAAGGACUCUUCAACCCCGCUCACUUUCUUAUCCGGACUGGGAUAUUAAAUAUACGACACAUCCAGGAGUUUAUUG,0.25 ratio
GCUAAGAUUGGGCUUAUUCAGUUUUGCUUAUCUGCUCCUAAAACAGAUAUGGAUAAUCAAACCGCCGUAUCUGACUAUGCCCAGAUGGAUCGAGUGCUUCGAGAGGAGAGAGCCUAUAUU,0.18 ratio
ACAUUUAUGUCGCCAGGCUUUCCAGUCAAUAACAGCAGCAGUGAUAAUGCUCAGAACUUCCGUUUUAAAACAAACUCUGGAUUUGCUGCUGCCUCUUCUGGAAGCCCUGCUGGUUUUGGG,0.0895 ratio
CUCCUCUACAGAGCCACAAUGGCUCUGACGCUUGGUGGCACAGCCUAUGCCAUCUAUCUGUCCGCUAUGGCUGCAUUUCCCAAGAAGCAGAACUAAUGUCGUCAUCCCAGUCUUCACGUG,0.204 ratio
GCUGAGGGAGUCGACUUAAUUAAGGUCUUCGCAAAAACAGAAGCACAGAGAGGAGCAUAUACCGAAUCCGCACUUCAAACUUAUCAAGAAAUAGUUACCAGUCAUUCCGCAGCAUCCUGA,0.296 ratio
UGUGUCCCUGCCAUGAUCAGGUGUCUAUCAGAUGACGUAAAAACCAAGUUGCGUUCCGGUUCCGCCAUAAGCUCCUUGGGCCAGUGUGUUGAAGAACUUACCCUUAACAGUAUUGAUGCU,0.433 ratio

# Sample 2
# Target: RNA binding protein fox-1 homolog 2, RRM domain, GST-SBP tag (RBFOX2, Homo sapiens, UniProt O43251-10, residues 100-194)
# Technique: RNA Bind-n-Seq
# Molecule type: RNA
# Matrix: in vitro
# Tested at: 365 nM
# Setting: natural RNA segment, single round, ends assumed
# Baseline: no-protein control
# Reading: higher = stronger binding
# Constant ends, left off below: GGGAGUUCUACAGUCCGACGAUC … UGGAAUUCUCGGGUGCCAA
# Residues (chain): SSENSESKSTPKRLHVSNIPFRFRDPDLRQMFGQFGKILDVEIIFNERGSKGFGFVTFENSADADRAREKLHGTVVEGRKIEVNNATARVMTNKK
Oligonucleotide,RBNS enrichment (R)
CGAGAGGAUUUGCACAUGCCAAGCAGAGGGUGGCUCUCUUGGCAGUGAGAUUUGGGGGAAACAGACAUUAAGACAGCCUCCCAAAGCAGGGUGUGUUGCUCGUGACCCCA,1.73
AACCUGCACAUGGAGGACACAUCCAAUACCAGUUCUCCACAUUCCAACCUCUCUCUCUCUCUCUCACUGGGUGGAUAAAUUUGUGAGCCAACCAAGAAGGCUCAGCUGUC,0.821
UUAAAGACAGUCCAGAGCUUUUCAGUUGAUUCGUCUCCUAUCCUGUGUAAAUAUUUUCCUCUCAGGGCAGGGGAAAGAGGACAGAGAAAGGAGCUGGUAGAAGCAGAGAG,0.51
AAGAAUUGCACGUAUGAGAAACCUAUAUUUCAAUACUGCUGAAACAGACAUGAAAUAAAGAAUUUAAAGAAUGAUUUUGUUUGGUUUUAUUUUUCCCAACAUUUUAUUUU,4.68
UUCAUUUGAGUCUUAGCUCCCAUUUAAGUUAUGCUUCUGACCUUGUAUGGUCUGUAAGCUUGCCCAGAAAUAAGACCACUGUUUUGAACUACCACAAAAGUAUAAAUGAA,0.549
GCAGAGCUCUGCCCUGUAGCUCCCUGCCUCAGUUUAUCUUUGCAAUACAAAGCAAAUCCUUCCCCAGCUAUGUGUUUUAGCCUUUGAGUAGGGGAGUUUCGGUGUACACA,0.488
UCCUCCUUUUGGAGUCAGGCUCUAUGCCUAAACAGACUCAACAGAACCUGCACAUGGAGGACACAUCCAAUACCAGUUCUCCACAUUCCAACCUCUCUCUCUCUCUCUCA,1.26
AUUUUCCUUAGACUACCUAGUGGAGCAGGGAAUACUCUGCAUCUCAGGUAAAAAAAUGAGUACACUGAACAAUAUGUAAUUCAUACGUAUUUUGCAACUUACCUGUGAGC,0.295

# Sample 3
# Target: Histone acetyltransferase KAT6A, winged helix 1, GST fusion (KAT6A, Homo sapiens, UniProt Q92794, residues 1-85)
# Technique: protein binding microarray
# Molecule type: double-stranded DNA, one strand shown
# Matrix: in vitro
# Tested at: not given
# Setting: 8-mer, flanks averaged, mean of 2 arrays, mostly near background
# Baseline: not given
# Reading: higher = stronger binding
# Residues (chain): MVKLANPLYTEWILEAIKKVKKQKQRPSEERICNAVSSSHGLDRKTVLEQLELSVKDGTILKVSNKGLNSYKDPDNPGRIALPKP
Oligonucleotide,E-score
CTGTTAAA,-0.093
ATCCCACC,-0.00583
GGTCTCTA,-0.0786
AGCGCTGG,0.197
CATATTTC,-0.211
CAGGTTGC,-0.0612
CGCATCCA,0.272
TCTATCCA,-0.166
ACCTCCAC,-0.08
GCGTCCCA,0.0479
TCGTGTCA,-0.159
ACAGTCGC,0.0673
AGAGATAA,-0.258
ATACAAAG,-0.0818
AGCCGAAG,0.018
AGATATGG,-0.257
CAGTTGCA,-0.149
GAAAAAGA,-0.124
AGTGTGTA,-0.0418
GCCCGTTA,0.346
CGACCCAG,0.0303
ACGATCAA,-0.257
GGTGGTAA,-0.0817
CTTGACGA,-0.153

# Sample 4
# Target: Interferon regulatory factor 7, full length, phosphomimetic (IRF7, Homo sapiens, UniProt Q92985, residues 1-503, S101K/S471D/S472D/S475D/S476D/S477D/S483D/S484D/S487D)
# Technique: protein-binding microarray
# Molecule type: double-stranded DNA, one strand shown
# Matrix: in vitro
# Tested at: 250 nM
# Setting: 60-bp whole probe
# With: salmon DNA 0.4 mg/ml
# Baseline: random background probes
# Reading: higher = stronger binding
# Constant ends, left off below: GCCTAGCAC … GTCTTGATTCGCTTGACGCTGCTG
# Target sequence (chain): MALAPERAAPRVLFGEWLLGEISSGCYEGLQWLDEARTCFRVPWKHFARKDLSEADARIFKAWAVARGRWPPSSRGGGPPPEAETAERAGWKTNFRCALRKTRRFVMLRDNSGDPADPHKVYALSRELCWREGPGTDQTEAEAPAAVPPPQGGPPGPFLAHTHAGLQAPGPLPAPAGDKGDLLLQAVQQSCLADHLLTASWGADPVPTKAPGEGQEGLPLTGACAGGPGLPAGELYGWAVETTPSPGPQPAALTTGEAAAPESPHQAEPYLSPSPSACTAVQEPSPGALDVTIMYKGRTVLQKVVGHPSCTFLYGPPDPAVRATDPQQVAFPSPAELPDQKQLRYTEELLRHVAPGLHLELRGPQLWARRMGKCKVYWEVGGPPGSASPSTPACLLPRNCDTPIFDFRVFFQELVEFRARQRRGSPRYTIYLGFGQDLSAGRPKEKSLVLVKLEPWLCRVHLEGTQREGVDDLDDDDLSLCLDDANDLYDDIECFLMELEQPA
Oligonucleotide,log fluorescence
GACGGTATCGACACTGGCGACGTGCTA,-0.403 z-score
GACGGTATCGGGTCTGGGGACGTGCTA,0.246 z-score
GACGCACTGGGGTATCGGGACGTGCTA,-0.407 z-score
GAACATATTTGTTTCCATTTGTGCTAG,4.16 z-score
TTAGGTATCCTTTTCCTCTAGTGCTAG,1.39 z-score
TTAGGACTGGGGTTTGGGTTAGTGCTA,-0.175 z-score
CACGGACTGCTACTGCTGACGTGCTAG,-0.757 z-score
GACGGTATCGGTATCGGGAAGTGCTAG,1.41 z-score
TCACATCTGGGTATTTTACTGTGCTAG,0.0505 z-score
GCAAACCCCATTCTCAGCCCGTGCTAG,0.484 z-score
GACGGACTGCTACTGCTCACGTGCTAG,-0.93 z-score
GAGGGTATCGACACTGGGGACGTGCTA,-0.578 z-score
GGTACAAACTTGTAATTATAGTGCTAG,-0.0258 z-score
TTAGGATTCCTACTGCTTTAGTGCTAG,0.12 z-score
TCAAATGATTGGTTGAAACTGTGCTAG,-0.269 z-score
TGAAATTTTAGTAACACAGAGTGCTAG,-0.224 z-score
TCACGTCTCTATCAAAAACTGTGCTAG,0.532 z-score
GACGATATCGGGACTGGAGAGGTGCTA,-0.236 z-score
GACGAACTGAGTCGCGAGACGTGCTAG,-0.223 z-score

# Repeated from above (sample 3):
Oligonucleotide,E-score
ATACAAAG,-0.0818
AGCCGAAG,0.018
AGATATGG,-0.257
CAGTTGCA,-0.149
GAAAAAGA,-0.124
AGTGTGTA,-0.0418
GCCCGTTA,0.346
